Measured values pooled from the literature.
Each numbered part is a random draw from the data of one study; scales do not carry over between parts.

Series 1 — method: protein binding microarray; form: double-stranded DNA, one strand shown; matrix: in vitro; concentration: not given; reference: not given; reading: higher = stronger binding; quantity: E-score
Target: Histone acetyltransferase KAT6A, both winged helices, GST fusion (KAT6A, Homo sapiens, UniProt Q92794, residues 1-181)
Notes: 8-mer, flanks averaged, mean of 2 arrays, mostly near background
Target sequence (chain): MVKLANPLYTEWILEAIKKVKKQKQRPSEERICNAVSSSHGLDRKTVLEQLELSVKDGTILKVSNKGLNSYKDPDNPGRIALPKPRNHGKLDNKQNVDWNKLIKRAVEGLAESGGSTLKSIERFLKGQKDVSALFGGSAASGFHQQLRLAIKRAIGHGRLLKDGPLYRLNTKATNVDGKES
CTTTTAAC: 0.043
AACAAGGT: -0.124
CTGTTAAA: -0.0484
CCACGCGA: 0.113
CTAGCCTC: -0.207
GCCTCGAA: -0.0598

Series 2 — method: protein-binding microarray; form: double-stranded DNA, one strand shown; matrix: in vitro; concentration: 2200 nM top; notes: 60-bp whole probe; with: salmon DNA 0.4 mg/ml; reference: random background probes; reading: higher = stronger binding; quantity: fitted relative affinity; shared flanks, not repeated: GCCTAGCAC … GTCTTGATTCGCTTGACGCTGCTG
Target: Interferon regulatory factor 7, full length, phosphomimetic (IRF7, Homo sapiens, UniProt Q92985, residues 1-503, S471D/S472D/S475D/S476D/S477D/S483D/S484D/S487D)
Chain of UniProt Q92985 (whole entry, unmodified, looked up): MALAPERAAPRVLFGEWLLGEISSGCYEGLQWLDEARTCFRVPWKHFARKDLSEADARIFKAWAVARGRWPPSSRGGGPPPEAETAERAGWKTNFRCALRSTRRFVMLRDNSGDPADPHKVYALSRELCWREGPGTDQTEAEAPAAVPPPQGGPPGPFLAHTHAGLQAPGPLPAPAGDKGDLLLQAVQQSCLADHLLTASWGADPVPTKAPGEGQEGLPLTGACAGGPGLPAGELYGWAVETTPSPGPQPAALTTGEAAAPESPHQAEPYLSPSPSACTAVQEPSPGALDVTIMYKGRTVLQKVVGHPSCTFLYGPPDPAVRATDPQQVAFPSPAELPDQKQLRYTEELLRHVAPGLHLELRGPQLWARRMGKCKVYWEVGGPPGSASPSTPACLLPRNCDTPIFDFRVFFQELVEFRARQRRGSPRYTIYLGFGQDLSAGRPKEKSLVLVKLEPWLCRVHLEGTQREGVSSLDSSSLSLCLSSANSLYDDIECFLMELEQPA
TTAGGTATCGACTATCGGTTCGTGCTA: 1.11 z-score
GGGCATTTGGAAAATGAAAATGTGCTA: -0.757 z-score
TTAGGTAACCTACTGCTTTAGTGCTAG: 0.161 z-score
TTCTGTATGGGCATTTTTCTAGTGCTA: 0.024 z-score
GACGGTCTCCTTCTCCTGGCGTGCTAG: 0.81 z-score
TCACATTTATATCTTTGACTGTGCTAG: 1.42 z-score
ATGGCTCTCTGGACTGTGTGTGTGCTA: 0.11 z-score
TTAGTTTTCCTTCTCCTTTAGTGCTAG: 4.23 z-score
GACGGTCACGGTTTCGGGACGTGCTAG: 2.07 z-score
CAGAATTTACTTTCTACGTCGTGCTAG: 1.52 z-score

Series 3 — method: RNA Bind-n-Seq; form: RNA; matrix: in vitro; concentration: 365 nM; reference: no-protein control; reading: higher = stronger binding; quantity: RBNS enrichment (R)
Target: RNA binding protein fox-1 homolog 2, RRM domain, GST-SBP tag (RBFOX2, Homo sapiens, UniProt O43251-10, residues 100-194)
Notes: natural RNA segment, single round, ends assumed
Shared flanks, not repeated: GGGAGUUCUACAGUCCGACGAUC … UGGAAUUCUCGGGUGCCAA
Residues (chain): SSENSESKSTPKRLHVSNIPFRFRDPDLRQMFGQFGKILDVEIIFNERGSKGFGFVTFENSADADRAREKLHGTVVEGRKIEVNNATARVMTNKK
AUCCCUUGCCUCCAUGUGUUUCUAUGCAGCCAUAGUUUGAGGACAGCCAGGCACCCACCUCAGGACAAGUUCAGGAAGGGAAGACAGUGGACUGUACGGGACCUGGUGUG: 0.825
UGUGUGGGCCAUUGACUGCCUUGACCAGUAGAAGGGAUAACUAUUACACAGAUAGGCAGGCAGGGUGGCAGUCACCUCCCCUGUCCACGUGGAUCCAUCCCUGCCAUUGU: 0.2
UGGGAGGAUGGCUUGUGUCCAGAAGUUCGAGACCAGCCUGGACAACAUAGUGAGAUCCUAUCUCUAUAAAAAAUCAAAAAUUAGCCAGGCAUGGUGGUGCAUACCUAUAG: 1.48
AAGAAGGAUACUGUGUAGUUGAACUAAGGCUCUUUCCAGGCCGGGCUUGCAUCCUGUUGUGUAUUCUUUGUAUGCUGCUGACUAUAUCCCUAUUCUGCUGUAGGGGACUA: 1.25
UGUAACUCAUUUGAAUAGGUUUUGCAUUUGUUAUUCAGCAGUGUAUAAAGCUAACCUUGAUAAUUUUACUUUUAAUUAAUUAUCUAAAUGAAAAAUGCUAUUAGCUGAAC: 0.654

Further values, each from its own experiment
PhoQ, residues 284 288 289 292 302 303 SLANKL
fold induction (PhoP, residues 12 14 15 18 19 LHHSG (Escherichia coli, UniProt P23836); Sort-seq, item: YFP reporter; E. coli; PhoQ-PhoP variant library, with: 10 µM Mg2+; reference: high Mg2+ state, higher = stronger signaling): 2.67

Excerpt of the above (series 3):
UGUGUGGGCCAUUGACUGCCUUGACCAGUAGAAGGGAUAACUAUUACACAGAUAGGCAGGCAGGGUGGCAGUCACCUCCCCUGUCCACGUGGAUCCAUCCCUGCCAUUGU: 0.2
UGGGAGGAUGGCUUGUGUCCAGAAGUUCGAGACCAGCCUGGACAACAUAGUGAGAUCCUAUCUCUAUAAAAAAUCAAAAAUUAGCCAGGCAUGGUGGUGCAUACCUAUAG: 1.48
AAGAAGGAUACUGUGUAGUUGAACUAAGGCUCUUUCCAGGCCGGGCUUGCAUCCUGUUGUGUAUUCUUUGUAUGCUGCUGACUAUAUCCCUAUUCUGCUGUAGGGGACUA: 1.25
UGUAACUCAUUUGAAUAGGUUUUGCAUUUGUUAUUCAGCAGUGUAUAAAGCUAACCUUGAUAAUUUUACUUUUAAUUAAUUAUCUAAAUGAAAAAUGCUAUUAGCUGAAC: 0.654
